# Results collected from several papers.
# Each numbered part is a random draw from the data of one study; scales do not carry over between parts.
# Chain of UniProt P07948 (whole entry, looked up): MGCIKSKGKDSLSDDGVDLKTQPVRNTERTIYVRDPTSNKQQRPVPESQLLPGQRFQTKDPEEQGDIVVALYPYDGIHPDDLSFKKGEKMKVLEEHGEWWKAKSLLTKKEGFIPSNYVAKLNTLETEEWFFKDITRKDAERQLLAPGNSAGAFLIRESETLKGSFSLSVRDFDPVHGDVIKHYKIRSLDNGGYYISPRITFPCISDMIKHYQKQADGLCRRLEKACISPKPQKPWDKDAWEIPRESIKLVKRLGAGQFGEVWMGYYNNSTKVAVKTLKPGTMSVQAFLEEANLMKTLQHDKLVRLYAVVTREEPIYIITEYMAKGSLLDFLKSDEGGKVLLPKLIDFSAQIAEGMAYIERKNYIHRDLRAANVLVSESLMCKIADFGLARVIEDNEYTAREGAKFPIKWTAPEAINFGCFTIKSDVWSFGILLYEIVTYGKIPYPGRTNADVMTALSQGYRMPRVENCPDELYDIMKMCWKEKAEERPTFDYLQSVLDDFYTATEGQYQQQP
# Chain of UniProt P11802 (whole entry, looked up): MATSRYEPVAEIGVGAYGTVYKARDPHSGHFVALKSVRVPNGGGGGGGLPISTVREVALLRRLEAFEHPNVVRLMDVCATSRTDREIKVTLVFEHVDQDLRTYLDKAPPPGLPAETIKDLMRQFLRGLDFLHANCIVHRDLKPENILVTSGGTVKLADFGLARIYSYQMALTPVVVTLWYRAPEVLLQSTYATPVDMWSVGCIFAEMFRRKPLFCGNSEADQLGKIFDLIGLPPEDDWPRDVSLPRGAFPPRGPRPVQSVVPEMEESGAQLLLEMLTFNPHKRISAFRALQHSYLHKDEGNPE
# Chain of UniProt P35626 (whole entry, looked up): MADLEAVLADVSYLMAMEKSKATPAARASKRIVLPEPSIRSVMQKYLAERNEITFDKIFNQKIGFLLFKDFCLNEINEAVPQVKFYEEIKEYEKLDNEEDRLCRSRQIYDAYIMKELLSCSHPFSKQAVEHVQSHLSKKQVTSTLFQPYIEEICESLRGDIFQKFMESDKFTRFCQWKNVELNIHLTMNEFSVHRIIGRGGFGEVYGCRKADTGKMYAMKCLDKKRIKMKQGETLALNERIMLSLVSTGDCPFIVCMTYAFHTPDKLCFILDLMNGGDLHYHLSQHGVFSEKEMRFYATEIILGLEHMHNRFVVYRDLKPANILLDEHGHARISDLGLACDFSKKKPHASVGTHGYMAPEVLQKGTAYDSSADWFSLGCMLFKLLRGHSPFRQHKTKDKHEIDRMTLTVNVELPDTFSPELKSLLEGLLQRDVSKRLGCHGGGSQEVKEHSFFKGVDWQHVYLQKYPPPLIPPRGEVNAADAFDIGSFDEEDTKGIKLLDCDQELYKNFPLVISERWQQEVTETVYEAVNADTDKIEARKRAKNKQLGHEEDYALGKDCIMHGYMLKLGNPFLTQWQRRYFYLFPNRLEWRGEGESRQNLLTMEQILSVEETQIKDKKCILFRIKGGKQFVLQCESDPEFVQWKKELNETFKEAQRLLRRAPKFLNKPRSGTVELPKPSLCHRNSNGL
# Chain of UniProt P42684 (whole entry, looked up): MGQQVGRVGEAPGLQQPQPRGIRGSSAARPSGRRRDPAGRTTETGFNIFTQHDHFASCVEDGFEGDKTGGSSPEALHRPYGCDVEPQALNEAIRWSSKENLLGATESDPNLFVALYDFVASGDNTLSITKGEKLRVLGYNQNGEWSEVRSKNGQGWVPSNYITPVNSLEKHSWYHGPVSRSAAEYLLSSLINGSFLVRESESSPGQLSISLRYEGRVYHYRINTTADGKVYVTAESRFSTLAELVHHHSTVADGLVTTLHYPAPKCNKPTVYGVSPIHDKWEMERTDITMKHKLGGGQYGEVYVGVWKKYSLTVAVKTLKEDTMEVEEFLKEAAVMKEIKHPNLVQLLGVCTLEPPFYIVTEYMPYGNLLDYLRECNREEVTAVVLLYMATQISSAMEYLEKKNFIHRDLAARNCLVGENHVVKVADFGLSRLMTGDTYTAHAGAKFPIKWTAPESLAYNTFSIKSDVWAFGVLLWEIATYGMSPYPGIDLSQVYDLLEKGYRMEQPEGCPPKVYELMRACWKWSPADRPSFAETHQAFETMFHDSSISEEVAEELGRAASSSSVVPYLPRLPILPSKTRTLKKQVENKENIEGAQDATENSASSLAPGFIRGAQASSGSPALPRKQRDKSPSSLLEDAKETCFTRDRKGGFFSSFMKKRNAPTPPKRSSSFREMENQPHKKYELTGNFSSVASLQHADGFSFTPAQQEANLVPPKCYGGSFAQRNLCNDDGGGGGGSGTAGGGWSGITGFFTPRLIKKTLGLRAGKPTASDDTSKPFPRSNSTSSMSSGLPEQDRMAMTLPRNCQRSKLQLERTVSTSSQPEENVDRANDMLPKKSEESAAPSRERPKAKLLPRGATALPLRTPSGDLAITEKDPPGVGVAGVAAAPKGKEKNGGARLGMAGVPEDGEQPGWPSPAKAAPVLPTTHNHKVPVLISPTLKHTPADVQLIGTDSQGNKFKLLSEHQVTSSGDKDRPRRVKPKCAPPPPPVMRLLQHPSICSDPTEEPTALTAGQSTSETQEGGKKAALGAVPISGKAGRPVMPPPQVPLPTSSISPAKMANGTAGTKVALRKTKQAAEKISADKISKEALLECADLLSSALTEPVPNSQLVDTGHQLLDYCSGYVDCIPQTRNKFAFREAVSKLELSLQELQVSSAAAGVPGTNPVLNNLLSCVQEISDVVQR
# Chain of UniProt Q9UIK4 (whole entry, looked up): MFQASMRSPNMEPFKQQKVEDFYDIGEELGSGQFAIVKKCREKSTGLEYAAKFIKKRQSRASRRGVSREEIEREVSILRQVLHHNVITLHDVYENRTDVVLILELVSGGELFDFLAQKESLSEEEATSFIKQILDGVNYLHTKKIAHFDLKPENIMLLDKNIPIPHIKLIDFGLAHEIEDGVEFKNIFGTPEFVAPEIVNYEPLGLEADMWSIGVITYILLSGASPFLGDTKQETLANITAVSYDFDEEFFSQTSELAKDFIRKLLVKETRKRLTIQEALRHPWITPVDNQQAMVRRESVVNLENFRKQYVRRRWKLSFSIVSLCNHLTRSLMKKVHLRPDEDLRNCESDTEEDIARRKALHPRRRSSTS
# Chain of UniProt O14965 (whole entry, looked up): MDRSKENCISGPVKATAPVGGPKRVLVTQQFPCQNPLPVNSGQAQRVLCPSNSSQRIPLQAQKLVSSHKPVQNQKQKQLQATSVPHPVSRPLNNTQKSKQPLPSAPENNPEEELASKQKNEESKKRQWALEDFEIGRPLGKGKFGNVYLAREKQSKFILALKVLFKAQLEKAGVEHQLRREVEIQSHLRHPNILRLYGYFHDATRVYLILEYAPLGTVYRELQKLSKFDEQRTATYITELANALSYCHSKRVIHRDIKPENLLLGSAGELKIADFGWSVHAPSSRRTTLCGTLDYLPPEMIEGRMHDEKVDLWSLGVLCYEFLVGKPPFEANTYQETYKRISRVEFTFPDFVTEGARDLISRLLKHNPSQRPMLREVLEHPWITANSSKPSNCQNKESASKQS
# Chain of UniProt O14920 (whole entry, looked up): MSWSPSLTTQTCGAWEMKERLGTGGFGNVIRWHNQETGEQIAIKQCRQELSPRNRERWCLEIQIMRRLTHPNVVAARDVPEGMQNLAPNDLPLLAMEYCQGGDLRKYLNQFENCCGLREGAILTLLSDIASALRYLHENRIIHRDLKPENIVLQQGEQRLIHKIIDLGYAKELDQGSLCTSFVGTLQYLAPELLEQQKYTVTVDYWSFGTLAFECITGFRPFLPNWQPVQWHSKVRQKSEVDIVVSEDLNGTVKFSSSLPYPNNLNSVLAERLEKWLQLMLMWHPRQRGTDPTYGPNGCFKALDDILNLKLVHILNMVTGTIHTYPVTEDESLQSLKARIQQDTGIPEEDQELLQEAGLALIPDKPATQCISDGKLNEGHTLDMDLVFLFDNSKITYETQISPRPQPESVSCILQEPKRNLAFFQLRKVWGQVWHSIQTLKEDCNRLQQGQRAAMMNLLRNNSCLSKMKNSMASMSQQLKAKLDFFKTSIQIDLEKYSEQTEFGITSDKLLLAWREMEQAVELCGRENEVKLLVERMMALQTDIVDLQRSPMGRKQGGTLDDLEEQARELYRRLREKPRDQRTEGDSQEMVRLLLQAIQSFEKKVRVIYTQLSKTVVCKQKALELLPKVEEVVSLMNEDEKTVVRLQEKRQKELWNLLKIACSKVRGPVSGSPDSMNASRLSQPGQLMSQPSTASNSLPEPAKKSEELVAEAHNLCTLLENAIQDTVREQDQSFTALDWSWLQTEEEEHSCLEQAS

# Series 1 — cell line: 1205Lu melanoma
Structure (SMILES),IC50 [µM]
CNCCCN1c2ccccc2CCc2ccccc21,16.8
CNCCC=C1c2ccccc2CCc2ccccc21,13.2
CCOC(=O)C1=C(COCCN)NC(C)=C(C(=O)OC)C1c1ccccc1Cl (stereo not shown),12.8
CN(C)CCC=C1c2ccccc2CCc2ccccc21,36.3
O=C1NCCN1CCN1CCC(c2cn(-c3ccc(F)cc3)c3ccc(Cl)cc23)CC1,2
CN(C)CC/C=C1/c2ccccc2Sc2ccc(Cl)cc21,8.9
COCC(=O)O[C@]1(CCN(C)CCCc2nc3ccccc3[nH]2)CCc2cc(F)ccc2[C@@H]1C(C)C,4.9
CN1CCc2c(c3ccccc3n2Cc2ccccc2)C1,110
CN(C)CCCN1c2ccccc2Sc2ccc(Cl)cc21,15
c1cc(CN2CCCCC2)cc(OCCCNc2nc3ccccc3s2)c1,28
OCCN1CCN(CCCN2c3ccccc3Sc3ccc(Cl)cc32)CC1,9.3
CCN(CC)CCCC(C)Nc1c2ccc(Cl)cc2nc2ccc(OC)cc12 (stereo not shown),3.8
CC(C)(C)c1ccc(C(O)CCCN2CCC(C(O)(c3ccccc3)c3ccccc3)CC2)cc1 (stereo not shown),3.9

# Series 2 — observed: enzyme activity; action: inhibitor; tested at: 0.5 µM; relative to: control
# Compound: C[S+]([O-])c1ccc(-c2nc(-c3ccncc3)c(-c3ccc(F)cc3)[nH]2)cc1 (stereo not shown)
target,remaining activity [%]
"Serine/threonine-protein kinase Nek2 (NEK2, Homo sapiens, UniProt P51955)",105
"Death-associated protein kinase 2 (DAPK2, Homo sapiens, UniProt Q9UIK4)",102
"Serine/threonine-protein kinase STK11 (STK11, Homo sapiens, UniProt Q15831)",81.6
"Inhibitor of nuclear factor kappa-B kinase subunit beta (IKBKB, Homo sapiens, UniProt O14920)",106
"Calcium/calmodulin-dependent protein kinase kinase 2 (CAMKK2, Homo sapiens, UniProt Q96RR4)",110
"Serine/threonine-protein kinase OSR1 (OXSR1, Homo sapiens, UniProt O95747)",102
"Protein kinase C alpha type (PRKCA, Homo sapiens, UniProt P17252)",92.3
"G protein-coupled receptor kinase 3 (GRK3, Homo sapiens, UniProt P35626)",98.2
"Mitogen-activated protein kinase kinase kinase 3 (MAP3K3, Homo sapiens, UniProt Q99759)",102
"cAMP-dependent protein kinase catalytic subunit alpha (PRKACA, Homo sapiens, UniProt P17612)",98.9
"Cyclin-dependent kinase 4, with cyclin D1 (CDK4, Homo sapiens, UniProt P11802)",105
"STE20/SPS1-related proline-alanine-rich protein kinase (STK39, Homo sapiens, UniProt Q9UEW8)",93.9
"Serine/threonine-protein kinase 10 (STK10, Homo sapiens, UniProt O94804)",89.1
"Inhibitor of nuclear factor kappa-B kinase subunit epsilon (IKBKE, Homo sapiens, UniProt Q14164)",98
"Protein kinase C beta type, isoform beta-I (PRKCB, Homo sapiens, UniProt P05771)",74
"Cyclin-dependent kinase 5, with p25 (CDK5, Homo sapiens, UniProt Q00535)",90.5
"Tyrosine-protein kinase Lyn, isoform B (LYN, Homo sapiens, UniProt P07948)",99.1
"cGMP-dependent protein kinase 1, isoform beta (PRKG1, Homo sapiens, UniProt Q13976)",88.8

# Series 3 — tested at: 1 µM
# Compound: CC(=O)Nc1c(C(C)=O)c(=O)n(C)c2nc(-c3ccc(Cl)cc3Cl)c(-c3ccc(Cl)cc3)cc12
target,observed,technique,remaining binding
"Tyrosine-protein kinase ABL2 (ABL2, Homo sapiens, UniProt P42684)",cell-free assay,competition with immobilised ligand,100%
"Cyclin-G-associated kinase (GAK, Homo sapiens, UniProt O14976)",cell-free assay,competition with immobilised ligand,100%
"Proto-oncogene tyrosine-protein kinase receptor Ret (RET, Homo sapiens, UniProt P07949, M918T)",cell-free assay,competition with immobilised ligand,100%
"Aurora kinase A (AURKA, Homo sapiens, UniProt O14965)",cell-free assay,competition with immobilised ligand,100%
"Macrophage colony-stimulating factor 1 receptor, autoinhibited (CSF1R, Homo sapiens, UniProt P07333)",cell-free assay,competition with immobilised ligand,100%
"Ribosomal protein S6 kinase alpha-3, C-terminal kinase domain (RPS6KA3, Homo sapiens, UniProt P51812)",cell-free assay,competition with immobilised ligand,99%
"Tyrosine-protein kinase Lyn (LYN, Homo sapiens, UniProt P07948)",cell-free assay,competition with immobilised ligand,100%
"Serine/threonine-protein kinase SIK1 (SIK1, Homo sapiens, UniProt P57059)",,competition binding,100%
"Calcium/calmodulin-dependent protein kinase type II subunit beta (CAMK2B, Homo sapiens, UniProt Q13554)",cell-free assay,competition with immobilised ligand,100%
"Ephrin type-B receptor 2 (EPHB2, Homo sapiens, UniProt P29323)",cell-free assay,competition with immobilised ligand,100%
"Epidermal growth factor receptor (EGFR, Homo sapiens, UniProt P00533, del747-752/P753S)",cell-free assay,competition with immobilised ligand,86%
"Serine/threonine-protein kinase WNK4 (WNK4, Homo sapiens, UniProt Q96J92)",cell-free assay,competition with immobilised ligand,100%
"Cyclin-dependent kinase 2 (CDK2, Homo sapiens, UniProt P24941)",cell-free assay,competition with immobilised ligand,100%
"Cyclin-dependent kinase 4, with cyclin D3 (CDK4, Homo sapiens, UniProt P11802)",cell-free assay,competition with immobilised ligand,100%
"Epidermal growth factor receptor (EGFR, Homo sapiens, UniProt P00533, A750P/del747-749)",cell-free assay,competition with immobilised ligand,100%
"Serine/threonine-protein kinase RIO3 (RIOK3, Homo sapiens, UniProt O14730)",cell-free assay,competition with immobilised ligand,100%
"Serine/threonine-protein kinase PAK 1 (PAK1, Homo sapiens, UniProt Q13153)",cell-free assay,competition with immobilised ligand,100%

# Series 4 — cell line: HaCaT; tested at: 100 µM; time: 36 h
SMILES,viability [%]
C/C=C1\NC(=O)[C@H]2CSSCC/C=C/[C@H](CC(=O)N[C@H](C(C)C)C(=O)N2)OC(=O)[C@H](C(C)C)NC1=O,7.93
CSCC1CN(/N=C/c2ccc([N+](=O)[O-])o2)C(=O)O1 (stereo not shown),9.48
N[C@@H](CCC(=O)N[C@@H](CS)C(=O)NCC(=O)O)C(=O)O,83.9
Nc1ccc(S(=O)(=O)Nc2nccs2)cc1,61.7
CCc1oc2ccccc2c1C(=O)c1cc(Br)c(O)c(Br)c1,47.8
CCC(Cc1c(I)cc(I)c(N)c1I)C(=O)O (stereo not shown),59.6
N=C(N)NC(=O)Cc1c(Cl)cccc1Cl,91.5
CN(Cc1cc(Br)cc(Br)c1N)C1CCCCC1,35.9
Cc1coc2c1C(=O)C(=O)c1c-2ccc2c(C)cccc12,7.89
CCC[C@H](N[C@@H](C)C(=O)N1[C@H](C(=O)O)C[C@@H]2CCCC[C@@H]21)C(=O)O,100

# Repeated from above (series 3):
target,observed,technique,remaining binding
"Cyclin-dependent kinase 4, with cyclin D3 (CDK4, Homo sapiens, UniProt P11802)",cell-free assay,competition with immobilised ligand,100%
"Tyrosine-protein kinase Lyn (LYN, Homo sapiens, UniProt P07948)",cell-free assay,competition with immobilised ligand,100%
"Serine/threonine-protein kinase RIO3 (RIOK3, Homo sapiens, UniProt O14730)",cell-free assay,competition with immobilised ligand,100%
"Calcium/calmodulin-dependent protein kinase type II subunit beta (CAMK2B, Homo sapiens, UniProt Q13554)",cell-free assay,competition with immobilised ligand,100%
